Measured values pooled from the literature.
A part holds a random share of what one study measured. Several values in a cell are separate wells, animals, samples, runs or records.
UniProt P07949, sequence (whole entry, unmodified, looked up): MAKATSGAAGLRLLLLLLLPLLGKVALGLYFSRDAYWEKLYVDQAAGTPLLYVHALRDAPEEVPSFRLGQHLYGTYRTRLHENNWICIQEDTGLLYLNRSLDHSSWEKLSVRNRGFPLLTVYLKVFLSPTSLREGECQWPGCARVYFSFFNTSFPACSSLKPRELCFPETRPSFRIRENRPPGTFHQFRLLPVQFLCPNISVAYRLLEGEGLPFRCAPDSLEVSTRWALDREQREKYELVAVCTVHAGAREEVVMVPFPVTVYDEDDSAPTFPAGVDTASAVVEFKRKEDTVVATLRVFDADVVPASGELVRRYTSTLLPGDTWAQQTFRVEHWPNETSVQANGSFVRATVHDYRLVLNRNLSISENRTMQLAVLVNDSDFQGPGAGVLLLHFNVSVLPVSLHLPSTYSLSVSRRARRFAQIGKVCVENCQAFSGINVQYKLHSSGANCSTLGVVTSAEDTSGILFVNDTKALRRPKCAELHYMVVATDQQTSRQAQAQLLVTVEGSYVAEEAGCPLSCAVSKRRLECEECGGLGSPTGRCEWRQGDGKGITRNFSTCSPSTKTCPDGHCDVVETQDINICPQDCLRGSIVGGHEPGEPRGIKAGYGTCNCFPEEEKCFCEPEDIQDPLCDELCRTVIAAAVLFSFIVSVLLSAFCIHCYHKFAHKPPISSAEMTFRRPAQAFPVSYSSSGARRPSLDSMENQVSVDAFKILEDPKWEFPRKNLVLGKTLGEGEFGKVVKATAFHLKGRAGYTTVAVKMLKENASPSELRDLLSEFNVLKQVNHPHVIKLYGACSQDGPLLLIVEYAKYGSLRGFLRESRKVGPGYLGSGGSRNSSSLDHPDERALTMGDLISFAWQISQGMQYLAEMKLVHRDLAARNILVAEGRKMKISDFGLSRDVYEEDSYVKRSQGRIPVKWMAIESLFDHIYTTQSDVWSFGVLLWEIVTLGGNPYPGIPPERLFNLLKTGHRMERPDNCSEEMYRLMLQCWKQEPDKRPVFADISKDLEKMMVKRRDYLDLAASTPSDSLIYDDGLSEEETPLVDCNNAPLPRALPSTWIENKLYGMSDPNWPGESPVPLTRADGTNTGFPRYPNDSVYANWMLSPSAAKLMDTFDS

Block 1 — technique: phase 2a trial; species: idiopathic pulmonary fibrosis patients
Structure (SMILES): CC(C)n1cnc(-c2ccc(F)cc2)c1-c1ncc(C(=O)Nc2ccc(N3CCN(C)CC3)cc2)[nH]1
| assay | setting | adverse event incidence [%] |
| --- | --- | --- |
| refers to: immunoglobulins increased | 30 mg once daily, grade 5 | 0 |
| refers to: chronic gastritis | 60 mg once daily, grade 2 | 0 |
| refers to: gingivitis | dose not given, grade 1, all arms pooled | 0 |
| refers to: arthritis | 60 mg once daily, grade 2 | 0 |
| refers to: carotid intima-media thickening | dose not given, grade 5, all arms pooled | 0 |
| refers to: carotid intima-media thickening | 60 mg once daily, grade 4 | 0 |
| refers to: carotid intima-media thickening | 60 mg once daily, grade 2 | 0 |
| refers to: general and administration site disorders | dose not given, grade 3, all arms pooled | 0 |
| refers to: ECG ST segment abnormal | 30 mg once daily, grade 3 | 0 |
| refers to: weight decreased | 60 mg once daily, grade 5 | 0 |
| refers to: proteinuria | dose not given, grade 5, all arms pooled | 0 |

Block 2 — observed: enzyme activity; action: inhibitor; tested at: 0.5 µM; baseline: control
Target: Insulin receptor (INSR, Homo sapiens, UniProt P06213)
UniProt P06213, sequence (whole entry, looked up): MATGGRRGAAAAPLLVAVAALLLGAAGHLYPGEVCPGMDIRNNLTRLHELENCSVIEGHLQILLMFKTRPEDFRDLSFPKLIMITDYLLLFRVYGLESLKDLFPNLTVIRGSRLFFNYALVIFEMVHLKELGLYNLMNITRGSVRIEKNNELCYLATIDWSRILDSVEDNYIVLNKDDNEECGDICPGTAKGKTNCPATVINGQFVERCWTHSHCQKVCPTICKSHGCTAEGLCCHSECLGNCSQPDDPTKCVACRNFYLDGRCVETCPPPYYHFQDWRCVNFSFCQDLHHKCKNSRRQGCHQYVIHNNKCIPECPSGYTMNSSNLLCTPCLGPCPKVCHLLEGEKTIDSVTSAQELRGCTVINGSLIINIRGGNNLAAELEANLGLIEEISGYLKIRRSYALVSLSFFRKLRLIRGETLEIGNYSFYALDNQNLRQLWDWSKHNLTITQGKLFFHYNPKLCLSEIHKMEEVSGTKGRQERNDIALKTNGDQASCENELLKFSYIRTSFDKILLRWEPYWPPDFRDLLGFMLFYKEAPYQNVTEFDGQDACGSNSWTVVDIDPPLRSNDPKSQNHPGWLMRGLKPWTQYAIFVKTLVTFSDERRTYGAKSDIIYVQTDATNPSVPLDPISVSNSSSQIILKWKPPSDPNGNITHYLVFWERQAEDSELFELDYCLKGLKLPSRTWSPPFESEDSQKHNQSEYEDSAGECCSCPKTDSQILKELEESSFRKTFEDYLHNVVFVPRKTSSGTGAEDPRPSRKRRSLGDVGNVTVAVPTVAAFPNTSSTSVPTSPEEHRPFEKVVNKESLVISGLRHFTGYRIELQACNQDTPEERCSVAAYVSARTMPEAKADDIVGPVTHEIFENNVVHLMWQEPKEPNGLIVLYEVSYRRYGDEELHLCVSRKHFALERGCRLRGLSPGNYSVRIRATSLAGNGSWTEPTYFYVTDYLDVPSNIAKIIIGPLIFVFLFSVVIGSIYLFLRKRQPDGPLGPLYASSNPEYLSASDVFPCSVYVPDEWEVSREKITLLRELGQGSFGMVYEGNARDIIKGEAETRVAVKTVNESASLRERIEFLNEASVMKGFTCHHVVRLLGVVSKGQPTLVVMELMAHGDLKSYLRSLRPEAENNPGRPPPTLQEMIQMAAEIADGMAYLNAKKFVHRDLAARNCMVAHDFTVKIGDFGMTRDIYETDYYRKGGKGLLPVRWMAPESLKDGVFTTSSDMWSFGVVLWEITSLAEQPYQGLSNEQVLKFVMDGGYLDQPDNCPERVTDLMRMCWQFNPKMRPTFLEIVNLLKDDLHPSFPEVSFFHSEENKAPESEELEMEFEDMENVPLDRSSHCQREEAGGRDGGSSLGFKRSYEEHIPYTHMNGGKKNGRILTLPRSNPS
| Compound | remaining activity [%] |
| --- | --- |
| O=C(Nc1cccc(Nc2nccc(Nc3cccc(C(F)(F)F)c3)n2)c1)C1CC1 | 89.8 |
| Cc1nc2cc3nc(-c4cccs4)cnc3cc2n1C | 99.9 |
| O=c1cc(-c2cccc3c2Sc2ccccc2S3)oc(N2CCOCC2)c1 | 105 |
| O=C1c2ccccc2-c2n[nH]c3cccc1c23 | 86.9 |
| N#Cc1c(NC(=O)c2cccc3ccccc23)sc2c1CCCC2 | 98.2 |
| COc1cc2ncnc(Nc3ccc(O)c(Br)c3)c2cc1OC | 92.4 |
| Cn1nc2c3c(cccc31)C(=O)c1ccccc1-2 | 99.5 |
| N#C/C(=C\c1ccc(O)c(O)c1)C(=O)NCc1ccccc1 | 93.8 |
| Cc1cc2ncc(-c3ccccc3)nc2cc1C | 94 |
| c1ccc(-c2[nH]ncc2-c2ccnc3ccccc23)nc1 | 86.7 |
| COc1cc2ncnc(Nc3cccc(Cl)c3)c2cc1OC | 77.6 |
| COc1cc2c(cc1OC)-c1[nH]nc(Nc3cccc(F)c3)c1C2 | 101 |
| Cc1cn(-c2cc(NC(=O)c3ccc(C)c(Nc4nccc(-c5cccnc5)n4)c3)cc(C(F)(F)F)c2)cn1 | 102 |
| CCOc1nc(NC(=O)Cc2cc(OC)ccc2OC)cc(N)c1C#N | 102 |
| CCN(CC)CCNC(=O)c1c(C)[nH]c(/C=C2\C(=O)Nc3ccc(Cl)cc32)c1C | 30.1 |
| Ic1cccc(CSc2nnc(-c3ccncc3)o2)c1 | 83.5 |
| CN([C@@H](Cc1ccc(OS(=O)(=O)c2cccc3cnccc23)cc1)C(=O)N1CCN(c2ccccc2)CC1)S(=O)(=O)c1cccc2cnccc12 | 98.8 |
| CCN(CC)C(=O)c1ccc(Nc2nc(OCC3CCCCC3)c3[nH]cnc3n2)cc1 | 92.8 |
| CN(C)C[C@H]1CCn2c(c(C3=C(c4cn(C)c5ccccc45)C(=O)NC3=O)c3ccccc32)C1 | 88 |
| O=C(NC(NC(=S)Nc1ccc(F)c([N+](=O)[O-])c1)C(Cl)(Cl)Cl)C(c1ccccc1)c1ccccc1 (stereo not shown) | 100 |
| O=C1C(Cl)=C(N2C(=O)CCC2=O)C(=O)c2ccccc21 | 105 |
| Nc1cccc(-c2cc3c(Oc4cccc(O)c4)ncnc3[nH]2)c1 | 93.7 |
| c1ccc(-c2cnc(Nc3ccc(OCCN4CCCC4)cc3)s2)cc1 | 95 |

Block 3 — observed: enzyme activity; action: inhibitor; tested at: 77 µM; baseline: untreated
Target: DNA polymerase theta, ATPase domain (POLQ, Homo sapiens, UniProt O75417)
UniProt O75417, sequence (whole entry, unmodified, looked up): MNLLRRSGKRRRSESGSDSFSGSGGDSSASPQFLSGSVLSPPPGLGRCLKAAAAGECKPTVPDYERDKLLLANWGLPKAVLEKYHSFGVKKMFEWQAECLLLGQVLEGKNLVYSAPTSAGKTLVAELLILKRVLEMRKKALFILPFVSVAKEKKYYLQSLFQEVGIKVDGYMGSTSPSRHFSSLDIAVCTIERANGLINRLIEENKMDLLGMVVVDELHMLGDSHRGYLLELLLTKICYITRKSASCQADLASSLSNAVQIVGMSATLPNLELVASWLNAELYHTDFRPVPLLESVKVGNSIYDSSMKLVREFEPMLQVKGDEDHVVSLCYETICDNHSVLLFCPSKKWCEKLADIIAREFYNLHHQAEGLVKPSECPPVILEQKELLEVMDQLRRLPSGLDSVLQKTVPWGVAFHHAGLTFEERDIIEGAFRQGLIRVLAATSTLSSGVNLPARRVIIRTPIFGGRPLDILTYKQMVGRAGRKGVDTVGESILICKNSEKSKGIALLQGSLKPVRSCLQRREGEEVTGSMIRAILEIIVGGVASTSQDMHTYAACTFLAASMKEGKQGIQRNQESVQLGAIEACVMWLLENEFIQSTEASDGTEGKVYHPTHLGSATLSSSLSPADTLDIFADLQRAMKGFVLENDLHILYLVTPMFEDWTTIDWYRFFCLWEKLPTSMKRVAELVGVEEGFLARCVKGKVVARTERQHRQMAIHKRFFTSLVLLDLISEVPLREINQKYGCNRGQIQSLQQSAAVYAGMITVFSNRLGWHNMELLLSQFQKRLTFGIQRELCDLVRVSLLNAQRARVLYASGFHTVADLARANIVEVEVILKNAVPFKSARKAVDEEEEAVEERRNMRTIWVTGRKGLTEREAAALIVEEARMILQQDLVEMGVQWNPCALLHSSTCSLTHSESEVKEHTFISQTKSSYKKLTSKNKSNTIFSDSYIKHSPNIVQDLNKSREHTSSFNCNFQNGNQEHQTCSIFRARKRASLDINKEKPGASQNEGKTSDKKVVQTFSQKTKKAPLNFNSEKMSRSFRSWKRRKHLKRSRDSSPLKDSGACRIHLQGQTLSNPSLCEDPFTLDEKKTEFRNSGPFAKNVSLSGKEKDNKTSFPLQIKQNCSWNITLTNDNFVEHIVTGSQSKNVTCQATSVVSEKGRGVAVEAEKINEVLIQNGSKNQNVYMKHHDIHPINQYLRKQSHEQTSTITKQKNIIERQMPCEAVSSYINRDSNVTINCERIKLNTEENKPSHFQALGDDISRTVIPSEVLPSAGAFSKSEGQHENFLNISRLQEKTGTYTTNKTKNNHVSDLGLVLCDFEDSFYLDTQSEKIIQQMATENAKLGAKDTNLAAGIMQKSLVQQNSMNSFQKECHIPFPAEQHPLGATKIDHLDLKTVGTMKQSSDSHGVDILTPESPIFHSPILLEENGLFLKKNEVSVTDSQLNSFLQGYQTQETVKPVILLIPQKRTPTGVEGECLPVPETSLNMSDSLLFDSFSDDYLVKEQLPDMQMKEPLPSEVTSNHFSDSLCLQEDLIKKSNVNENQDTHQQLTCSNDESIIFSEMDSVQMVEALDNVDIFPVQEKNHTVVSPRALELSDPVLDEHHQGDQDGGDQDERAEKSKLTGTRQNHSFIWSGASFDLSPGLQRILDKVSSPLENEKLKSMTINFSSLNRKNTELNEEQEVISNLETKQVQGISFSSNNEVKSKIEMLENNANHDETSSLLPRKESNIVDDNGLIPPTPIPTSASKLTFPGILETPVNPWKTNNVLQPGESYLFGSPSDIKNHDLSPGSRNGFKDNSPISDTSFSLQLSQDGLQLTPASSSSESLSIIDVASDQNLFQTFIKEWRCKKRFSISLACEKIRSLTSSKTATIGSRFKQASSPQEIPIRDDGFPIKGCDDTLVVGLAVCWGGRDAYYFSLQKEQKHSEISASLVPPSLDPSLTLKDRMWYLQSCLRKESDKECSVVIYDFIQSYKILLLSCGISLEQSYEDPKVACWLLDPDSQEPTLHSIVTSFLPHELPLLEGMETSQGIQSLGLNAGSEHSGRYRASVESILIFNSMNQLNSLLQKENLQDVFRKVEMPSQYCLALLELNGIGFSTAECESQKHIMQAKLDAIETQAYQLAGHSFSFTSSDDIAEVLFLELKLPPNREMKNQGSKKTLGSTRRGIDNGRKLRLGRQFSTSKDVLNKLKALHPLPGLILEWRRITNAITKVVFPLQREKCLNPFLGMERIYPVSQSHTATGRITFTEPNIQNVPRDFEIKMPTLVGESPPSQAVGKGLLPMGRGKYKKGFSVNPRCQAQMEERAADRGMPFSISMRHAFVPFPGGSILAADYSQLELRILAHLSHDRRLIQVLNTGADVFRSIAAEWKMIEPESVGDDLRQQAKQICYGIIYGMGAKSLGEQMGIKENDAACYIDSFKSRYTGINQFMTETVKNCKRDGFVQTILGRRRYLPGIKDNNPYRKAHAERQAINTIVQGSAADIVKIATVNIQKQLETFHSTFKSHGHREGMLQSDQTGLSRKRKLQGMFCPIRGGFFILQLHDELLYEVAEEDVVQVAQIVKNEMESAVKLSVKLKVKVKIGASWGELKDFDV
| Structure (SMILES) | remaining activity |
| --- | --- |
| OCCN1CCN(CC/C=C2/c3ccccc3Sc3ccc(Cl)cc32)CC1 | 110% |
| CC1COc2c(N3CCN(C)CC3)c(F)cc3c(=O)c(C(=O)O)cn1c23 (stereo not shown) | 92.7% |
| O=c1c2ccccc2[nH]c(=S)n1CCN1CCC(=C(c2ccc(F)cc2)c2ccc(F)cc2)CC1 | 102% and 106% |
| CNc1nccc(-c2cccnc2Oc2cc(C(=O)Nc3cccc(C(F)(F)F)c3)ccc2C)n1 | 113% and 115% and 109% |
| C/C(=C(\CCOP(=O)(O)O)SC(=O)c1ccccc1)N(C=O)Cc1cnc(C)nc1N | 110% |

Block 4 — technique: competition with immobilised ligand; tested at: 1 µM
Compound: O=S(=O)(NC1CCC(c2cc(F)ccc2F)(S(=O)(=O)c2ccc(Cl)cc2)CC1)C(F)(F)F (stereo not shown)
| target | assay | remaining binding [%] |
| --- | --- | --- |
| NUAK2 (Homo sapiens, UniProt Q9H093) | cell-free assay | 100 |
| Tyrosine-protein kinase ABL1, phosphorylated (ABL1, Homo sapiens, UniProt P00519, T315I) | cell-free assay | 85 |
| Ribosomal protein S6 kinase alpha-5, N-terminal kinase domain (RPS6KA5, Homo sapiens, UniProt O75582) | cell-free assay | 94 |
| TGFBR2 (Homo sapiens, UniProt P37173) | cell-free assay | 100 |
| COQ8B (Homo sapiens, UniProt Q96D53) | cell-free assay | 88 |
| IRAK4 (Homo sapiens, UniProt Q9NWZ3) | cell-free assay | 97 |
| WNK2 (Homo sapiens, UniProt Q9Y3S1) | cell-free assay | 77 |
| MAPK10 (Homo sapiens, UniProt P53779) | cell-free assay | 67 |
| MAP3K13 (Homo sapiens, UniProt O43283) | cell-free assay | 91 |
| TSSK3 (Homo sapiens, UniProt Q96PN8) | cell-free assay | 88 |
| GRK3 (Homo sapiens, UniProt P35626) | cell-free assay | 92 |
| RET (Homo sapiens, UniProt P07949) | cell-free assay | 92 |
| PDPK1 (Homo sapiens, UniProt O15530) | cell-free assay | 100 |
| MAP3K9 (Homo sapiens, UniProt P80192) | cell-free assay | 98 |
| PIM3 (Homo sapiens, UniProt Q86V86) | cell-free assay | 100 |
| RET (Homo sapiens, UniProt P07949, V804L) | cell-free assay | 84 |
| ACVR1 (Homo sapiens, UniProt Q04771) | cell-free assay | 92 |
| CAMKK1 (Homo sapiens, UniProt Q8N5S9) | cell-free assay | 100 |
| MAP4K4 (Homo sapiens, UniProt O95819) | cell-free assay | 71 |
| MARK3 (Homo sapiens, UniProt P27448) | cell-free assay | 79 |
| BTK (Homo sapiens, UniProt Q06187) | cell-free assay | 100 |
| EPHA3 (Homo sapiens, UniProt P29320) | cell-free assay | 100 |
| NEK9 (Homo sapiens, UniProt Q8TD19) | cell-free assay | 100 |
| MAPK14 (Homo sapiens, UniProt Q16539) | cell-free assay | 100 |
| Tyrosine-protein kinase ABL1, phosphorylated (ABL1, Homo sapiens, UniProt P00519, E255K) | binding | 100 |
